Measurements pooled from the literature.
Protocols differ between the studies behind these lines. Values joined by “and” are separate records of one study, mostly repeats; a detail may differ. Numbers after ± are the reported error.
Alpha-carbonic anhydrase: Alpha-carbonic anhydrase (Enterococcus faecium, UniProt Q3XYE8)
Ubiquitin carboxyl-terminal hydrolase 39 ZnF-UBD domain: Ubiquitin carboxyl-terminal hydrolase 39, ZnF-UBD domain (Homo sapiens, UniProt Q53GS9)
UniProt Q53GS9, sequence (whole entry, looked up): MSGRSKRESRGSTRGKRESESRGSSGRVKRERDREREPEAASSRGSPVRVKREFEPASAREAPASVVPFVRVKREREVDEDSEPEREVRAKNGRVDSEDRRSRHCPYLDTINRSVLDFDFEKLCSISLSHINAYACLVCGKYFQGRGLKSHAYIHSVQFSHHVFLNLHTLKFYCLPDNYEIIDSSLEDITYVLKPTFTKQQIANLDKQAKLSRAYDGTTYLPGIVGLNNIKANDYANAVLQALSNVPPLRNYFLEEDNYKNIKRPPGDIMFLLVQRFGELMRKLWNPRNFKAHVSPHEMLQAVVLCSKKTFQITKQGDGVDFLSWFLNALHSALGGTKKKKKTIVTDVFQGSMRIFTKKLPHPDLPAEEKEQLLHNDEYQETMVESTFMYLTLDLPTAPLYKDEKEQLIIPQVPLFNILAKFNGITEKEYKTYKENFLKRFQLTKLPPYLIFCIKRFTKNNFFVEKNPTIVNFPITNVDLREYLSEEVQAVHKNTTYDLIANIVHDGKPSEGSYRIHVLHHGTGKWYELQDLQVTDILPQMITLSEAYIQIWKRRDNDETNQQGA

| SMILES | target or system | assay | system | setting | scale | measurement | result |
| --- | --- | --- | --- | --- | --- | --- | --- |
| NCC(=O)Nc1cncc(-c2nn3c(=O)cc(N4CCNCC4)nc3s2)c1 |  | ADP-induced platelet aggregation, light transmission aggregometry | human, stable CAD on aspirin, ex vivo platelets | subcutaneous, 0.05 mg/kg, 360 min post-dose, mean value, together with: ADP 20 µM |  | inhibition | 8.43% |
| C=CCn1c(=O)c2cnc(Nc3ccc(N4CCN(C)CC4)cc3)nc2n1-c1ccc2c(n1)[C@@](O)(CC)CC2 |  |  | Calu-6 xenograft, BALB/c nude mice | oral, 80 mg/kg once daily x 26, day 21 | relative to: vehicle | tumour growth inhibition | 47.8% |
| CC(=O)NCCc1c(Cc2ccccc2)[nH]c2ccccc12 |  |  | C3H/HeN mice, wild type | subcutaneous, 300 µg/mouse |  | days to re-entrainment | 10.6 ± 1.1 days |
| COc1cc2cc(-c3ccc(CC(=O)Nc4cc(C(C)(C)C(F)(F)F)no4)cn3)cnc2cc1OC |  | RECIST v1.1 | human RET-altered solid tumours | 11 50 mg tablets, phase I |  | objective response rate | 11% |
| C[C@@H](O)CCOC(=O)C[C@@H](C)O |  | refers to: glucagon | human, plasma | 60 min |  | log2 level | 4.25 ± 0.84 pmol/L |
| CC(c1cc2ccccc2s1)N(O)C(N)=O (stereo not drawn) |  | refers to: 17-HDHA | human whole blood | 3 µM, together with: Escherichia coli |  | amount | 229 ± 22 pg/mL blood |
| CC1(C)CCCCN1CC(=O)Nc1nnc(S(N)(=O)=O)s1 | Alpha-carbonic anhydrase | CO2 hydration, inhibitor, stopped-flow kinetics |  |  |  | Ki | 0.0145 µM |
| O=C(O)CC[C@H](NC(=O)N[C@@H](CCCCNC(=O)[C@H](Cc1ccc2ccccc2c1)NC(=O)CCCCCNC(=O)CN1CCN(CC(=O)O)CCN(CC(=O)O)CCN(CC(=O)O)CC1)C(=O)O)C(=O)O [gallium-68 labelled] |  | gamma counting | mouse, PC-3 xenograft, blood | intravenous, 3.7 MBq, 2 h |  | tissue uptake | 7.03 ± 0.31 %ID/g |
| CO[C@H]1CC[C@H](N2C(=O)CNc3ncc(-c4ccc(C(C)(C)O)nc4)nc32)CC1 |  | flow cytometry | stimulated B cells, human, blood | 30 mg single dose, 3 h, mean | relative to: baseline | pS6RP change from baseline | -71.8% |
| O=C(O)CCc1nccs1 | Ubiquitin carboxyl-terminal hydrolase 39 ZnF-UBD domain |  |  |  |  | Kd | > 1000 µM |
| Cc1c(C)n(Cc2cccc(OC(C)(C)C(=O)O)c2)c2ccc(C(=O)N[C@@H](C)c3ccc(C(C)(C)C)cc3)cc12 |  |  | C57BL/6 mice, diet-induced obese, L4 vertebra | dose not given |  | BV/TV | 11.1 ± 2.8% |
| O=C(OC(C(F)(F)F)C(F)(F)F)N1CCN(Cc2cccc(Oc3ccccc3)c2)CC1 |  | PET blocking study | rhesus monkey, brain HIP | 0.1 mg/kg, compound pretreatment, together with: [18F]T-401 tracer |  | k3 | 3.27 min⁻¹ |
| CN(C(=O)n1cnc(-c2ccc[n+]([O-])c2)c1)C1CCCCC1 |  | refers to: LEA | human, plasma | 1.25 mg single dose |  | AUC(0-t) | 227 ng·h/mL |
| O=C(O)Cc1ccc(O)cc1 |  | DPPH radical |  | 300 µg/mL |  | radical scavenging | 9.5 ± 0.72% |
| CO[C@H]1C[C@@H]2CC[C@@H](C)[C@@](O)(O2)C(=O)C(=O)N2CCCC[C@H]2C(=O)O[C@H]([C@H](C)C[C@@H]2CC[C@@H](OC(=O)NCCOCCOCCOCCOCCOCCOCCOCCOCCC(=O)N3CCc4cc(Cn5nc(-c6ccc7oc(N)nc7c6)c6c(N)ncnc65)ccc4C3)[C@H](OC)C2)C[C@@H](O)[C@H](C)/C=C(\C)[C@@H](O)[C@@H](OC)C(=O)[C@H](C)C[C@H](C)/C=C/C=C/C=C/1C |  | ctDNA molecular response, refers to: PI3K/mTOR pathway variants ctDNA | human, solid tumours | intravenous, dose not given, once weekly |  | lowest active dose | 6 mg |
| OCC(O)CO |  | ELISA | male Slc25a13 knockout mice, serum | oral in drinking water, 5 % w/v, 2 days |  | plasma FGF21 level | 369 pg/mL and 1120 pg/mL and 1700 pg/mL and 4310 pg/mL and 401 pg/mL and 728 pg/mL |
| NS(=O)(=O)c1nnc(NC(=O)CCCC2CCCCC2)s1 | Alpha-carbonic anhydrase | CO2 hydration, inhibitor, stopped-flow kinetics |  |  |  | Ki | 0.0942 µM |
| Cn1cnc(C[C@H](N)C(=O)O)c1 |  | binding, equilibrium dialysis LC-MS |  | 5 µM, thermostabilized A2AR-BRIL construct | relative to: no-protein control, direction not given | z-scored log2 fold change | 0.216 |
| NC(=O)c1cnc2[nH]ccc2c1N[C@@H]1[C@@H]2CC3C[C@H]1C[C@@](O)(C3)C2 |  | flow cytometry, refers to: CD4+ naive T cells | Japanese healthy subjects, peripheral blood | oral, 10 mg twice daily, day 7 |  | change from baseline | -3.47% |
| C[C@@H](O)[C@H](N)C(=O)O |  | binding, equilibrium dialysis LC-MS |  | 5 µM, thermostabilized A2AR-BRIL construct | relative to: no-protein control, direction not given | z-scored log2 fold change | 0.236 |
| COc1nnc2ccc(N3CCC(c4ccc(OCCN5CCN(C)C(=O)[C@H]5C)cc4)CC3)nn12 |  |  | human patients | 5 mg twice daily, 2-fold above baseline, monotherapy and combination cohorts |  | time above HEXIM1 threshold | 0.15 h |
| CC(C)[C@H](NC(=O)[C@H](Cc1ccc(O)cc1)NC(=O)[C@H](Cc1ccc(O)cc1)NC(=O)[C@@H]1CCCN1C(=O)[C@H](CCC(=O)O)NC(=O)[C@H](CCC(=O)O)NC(=O)[C@H](Cc1c[nH]c2ccccc12)NC(=O)[C@@H]1CCCN1C(=O)[C@@H](NC(=O)[C@H](CCC(N)=O)NC(=O)c1ccc2c(c1)C(=O)OC21c2ccc(O)cc2Oc2cc(O)ccc21)C(C)C)C(=O)N[C@H](C(=O)N[C@@H](CCCCN)C(=O)N[C@@H](CCCCN)C(=O)N[C@@H](CO)C(=O)N[C@@H](CO)C(=O)NCC(=O)NCC(N)=O)C(C)C |  | nerve branching | human head and neck surgery, nerves | 500 mg, not improved | relative to: white light | share of responses | 69.2% |
| C[C@@H](NC(=O)N1C(=O)[C@H](Cc2ccnc(N)c2)[C@H]1C(=O)O)C1CCCCC1 |  |  | human | iv infusion, 1.0 mg/kg/h, 24 h |  | PT AUEC | 1860 h·s |

| SMILES | target or system | assay | system | setting | scale | measurement | result |
| --- | --- | --- | --- | --- | --- | --- | --- |
| Cc1cc(Nc2cc3ncccc3c(N[C@@H]3C[C@H]4CC[C@@H](C3)N4CCC#N)n2)n[nH]1 |  |  | moderate-severe ulcerative colitis patients | 270 mg, day 28, Mayo subscore, unit not given | relative to: baseline | change physician global assessment | -0.5 |
| CCCCC1(CCCC)CN(c2ccccc2)c2cc(SC)c(OCC(=O)N[C@@H](C(=O)NCC(=O)O)c3ccccc3)cc2S(=O)(=O)C1 |  | refers to: 7α-hydroxy-4-cholesten-3-one | human, plasma | 5 mg once daily, day 11 |  | plasma C4 | 49.4 ng/mL |
| N[C@H](CCC(=O)O)C(=O)O |  | binding, equilibrium dialysis LC-MS |  | 5 µM, thermostabilized A2AR-BRIL construct | relative to: no-protein control, direction not given | z-scored log2 fold change | 0.506 |
| C[C@H](Oc1ccc(Br)cc1-c1ccon1)C(=O)O |  | maximum voluntary grip contraction, handgrip dynamometry | healthy human | 200 mg, SAD |  | difference from placebo | -0.213 kg |
| CC(=O)N[C@H]1[C@H](O[C@H]2[C@H](O)[C@@H](NC(C)=O)C(O)O[C@@H]2CO)O[C@H](CO)[C@@H](O)[C@@H]1O (stereo partly drawn) |  | binding, equilibrium dialysis LC-MS |  | 5 µM, thermostabilized A2AR-BRIL construct | relative to: no-protein control, direction not given | z-scored log2 fold change | 0.22 |
| CC(C)NCC(O)c1ccc(O)c(O)c1 (stereo not drawn) |  |  | ventricular cardiomyocytes, C57BL/6 mouse | dose not given, 0.048 s |  | sarcomere length | 1.72 µm |
| O=C1C[C@@H](C(=O)O)NC(=O)N1 |  | binding, equilibrium dialysis LC-MS |  | 5 µM, thermostabilized A2AR-BRIL construct | relative to: no-protein control, direction not given | z-scored log2 fold change | -0.848 |
| N#Cc1ccc2c(c1)[C@H]1CCCN(C(=O)c3ccc4[nH]cnc4c3)[C@H]1C2 |  |  | human clinical trial | oral, 240 mg once daily, 28 d | relative to: placebo | diastolic blood pressure change | -2.3 mmHg |
| COc1ccc(-c2cncc(N[C@@H](C)c3cccc(NC(=O)c4cncc(C)c4)c3)n2)cc1OC |  | refers to: rno-miR-138-5p | rat SU5416/hypoxia model, lung | dose not given, unit not given | relative to: SU5416/hypoxia vehicle | delta delta Ct | 0.4 |
| CC1(C)CCC(c2ccc(Cl)cc2)=C(CN2CCN(c3ccc(C(=O)NS(=O)(=O)c4ccc(N[C@H](CCN5CCOCC5)CSc5ccccc5)c(S(=O)(=O)C(F)(F)F)c4)cc3)CC2)C1 |  | cell killing | canine blood CD3+ T cells, dog 33 | 24 h |  | EC50 | 0.118 µM |
| N#Cc1ccn2c(-c3ccncc3)c(-c3ccc(F)cc3)nc2c1 |  | kinase binding, competitor, MIB/MS competition, refers to: PKH3 | Candida albicans cell lysate | 1 µM | relative to: DMSO | log2 fold change | -0.0424 |
| C[C@H](NC(=O)c1c(C(F)F)nn(C)c1Oc1cccc(C(F)(F)F)c1)c1ccc(C(=O)O)cc1 |  | irRECIST | human, advanced tumours | 500 mg |  | objective response rate | 0% |
| CCNc1nc2c(c(N3CC(=O)Nc4cc(OC)ccc43)n1)CCC2 |  | immunohistochemistry | mouse, A-375/TxR xenograft | 2 or 4 mg/kg | relative to: vehicle | lung or liver metastasis | inhibited |
| O=C(O)C(O)CO (stereo not drawn) |  | binding, equilibrium dialysis LC-MS |  | 5 µM, thermostabilized A2AR-BRIL construct | relative to: no-protein control, direction not given | z-scored log2 fold change | 0.431 |
| N#Cc1ccc2c(-c3ccncc3)c(-c3ccc(F)cc3)nn2c1 |  | kinase binding, competitor, MIB/MS competition, refers to: CDC7 | Candida albicans cell lysate | 1 µM | relative to: DMSO | log2 fold change | -0.304 |
| O=C(O)Cn1cnc2c(oc3ccccc32)c1=O | Ubiquitin carboxyl-terminal hydrolase 39 ZnF-UBD domain |  |  |  |  | Kd | > 1000 µM |
| CCO[C@H]1CCN(Cc2c(OC)cc(C)c3[nH]ccc23)[C@H](c2ccc(C(=O)O)cc2)C1 |  |  | PNH patients, blood | oral, 50 mg then 200 mg, week 4, mean absolute change | relative to: baseline | PNH RBC clone size | 28.5% |
| c1ccc(-c2n[nH]cc2-c2ccnc3ccccc23)nc1 |  | kinase binding, competitor, MIB/MS competition, refers to: RIM11 | Candida albicans cell lysate | 100 nM | relative to: DMSO | log2 fold change | 1.5 |
| Cn1cc(Nc2nccc(-c3ccc4c(c3)CN(C3COC3)CC[C@H]4NC(=O)c3cn(C(C)(C)C)nn3)n2)cn1 |  | refers to: Chondroitin Sulfate Degradation | splenic B cells, mouse | in vivo, 30 mg/kg, IgD-activated B cells | relative to: vehicle, positive = activation | pathway activation z-score | 1.34 |
| CN(C)C(=O)c1cc2cnc(Nc3ccc(N4CCNCC4)cn3)nc2n1C1CCCC1 |  | RNA-seq GSEA, refers to: HALLMARK_ANDROGEN_RESPONSE | MB002 tumour | concentration not given, in vivo | relative to: vehicle, direction not given | normalized enrichment score | 1.36 |
| O=Cc1ccc(O)cc1 |  | DPPH radical |  | 300 µg/mL |  | radical scavenging | 7.42 ± 1.16% |
| O=P(O)(O)O[C@H]1O[C@H](CO)[C@H](O)[C@H](O)[C@H]1O |  | binding, equilibrium dialysis LC-MS |  | 5 µM, thermostabilized A2AR-BRIL construct | relative to: no-protein control, direction not given | z-scored log2 fold change | 0.126 |
